Published values collected from several papers.
Each numbered part is a random draw from the data of one study; scales do not carry over between parts.

Block 1
Target: RNA binding protein fox-1 homolog 2, RRM domain, GST-SBP tag (RBFOX2, Homo sapiens, UniProt O43251-10, residues 100-194)
Method: RNA Bind-n-Seq
Form: RNA
Matrix: in vitro
Tested at: 365 nM
Setting: natural RNA segment, single round, ends assumed
Baseline: no-protein control
Direction: higher = stronger binding
Quantity: RBNS enrichment (R)
Residues (chain): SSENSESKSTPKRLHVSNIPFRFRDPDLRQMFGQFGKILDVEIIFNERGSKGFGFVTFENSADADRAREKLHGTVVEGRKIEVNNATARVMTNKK
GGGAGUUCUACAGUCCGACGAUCUAAAUAAUAUUUAAGCUUGUGCCCAUGUUGGCCGGGCAACUUUUUUCAAUGGUGCUUAUUAGAAGAAGUUUUUUCAUCUUGUCAUUUUAAGAAAAUAAAACUGGAAAUUGUGGAAUUCUCGGGUGCCAA: 0.473
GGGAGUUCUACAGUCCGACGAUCGCAGCCUCCACAGUGCGCGUUCAUUUUAUCAUAUUUUGGUAUCGGUAAUUUGAUAUAUUUCAUGGUGGCAAAAUAUUAGCUCUAUUUUGGGACUUUUUCUAGACUUACAUUGGAAUUCUCGGGUGCCAA: 0.316
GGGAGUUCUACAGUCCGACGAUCAAGCCAUUGUGCUAAGAUCUAAUCUGAGGACACUAUAAUGGCCCUGUCGUCAGGGAAGCCCGUGAUCGCUCGUUUUCAGGGGUCUUACCGGUCAGCAACCUUGGCAUUGAUGGAAUUCUCGGGUGCCAA: 0.437
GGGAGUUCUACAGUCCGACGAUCCUGUUACCUAGAGGGUCUCACCUCCCCACUCUUCACAGCAAACCUGAGCAGCGCGUCCUAAGCACCUCCCGCUCCGGUGACCCCAUCCUUGCACACCUGACUCUGUCACUUGGAAUUCUCGGGUGCCAA: 0.899
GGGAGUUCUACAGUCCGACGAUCCUGUGUGCCCAAAAUUCUGUUUCGCAGCAAAAGUGAAGACCUGUAUGUAAAGAAAGUAUAACAAUUAUUUCUUUGUAUUUUAGGGGCUUUAACCGGAACAUCGUCUAGCUUGGAAUUCUCGGGUGCCAA: 0.261
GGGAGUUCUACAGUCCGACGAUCGACAAUGGCCACAAGUUUGGCGUCCUUCAAUUUAAUUCUUUAAAGAAGUGCUGGGAAGAAAAAGCUAUGUGGUUUCUACCAUUUUAGCAGGAUAAAGAGGAUAACUCCUUUGGAAUUCUCGGGUGCCAA: 0.436
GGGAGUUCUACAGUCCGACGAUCUUAAUGCCUUAGCAGAAGAUAAAUCCUACCUAGAGACCUUUGUUCCUUAAAGCAAUAACUGACAACUCUUUGUAGUCCUCCUUGUGGGUAGUUAAGAGUGGGGUCACCCCUGGAAUUCUCGGGUGCCAA: 0.28
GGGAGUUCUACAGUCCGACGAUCUUUAUGUAUUUUUUGUGAAUGAAACUGUUGCUGUAGGAAAGUCAAGGUUCAUGUAAGAGUAUCGUGGUGUAAAUAUAAUGGUUUCACAGCUGUUUGAAUUUUUCUUUUCCUGGAAUUCUCGGGUGCCAA: 1.4
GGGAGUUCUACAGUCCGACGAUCCCCUGGGCUCAAUUCACUUCCUUAUUUGACAAAGUGGAGGUGAGACUUGUAUUCUUAAAAUUGGAGGCUAGUUAUUUUGUCAAAUGCAUGUAAUGAACAGACCCGAAGGAUGGAAUUCUCGGGUGCCAA: 23.4
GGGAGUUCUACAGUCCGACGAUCGGAAGGCACUCAGGCUUUCGUUGGAGAAACAGAAAUAAGGCCUUCUUUUGAGCAGCGAUUGCUGGAUCAUUGAUCUGUUUGAGGAAGUGUCUGACCUGGGCCUGAGAGCUUGGAAUUCUCGGGUGCCAA: 0.854
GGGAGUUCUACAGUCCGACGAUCAAGGCGCACAGAGCUGCUCCUGCCUAUGUGAUCUUUAAGUAGACCAGGAGCCAGGAAACCACUUUAAGAUGUAAGCCAUUGUGUGUCUCUAGUUUCUUAAGCAGACCAAGUGGAAUUCUCGGGUGCCAA: 0.341
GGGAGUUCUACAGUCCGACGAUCAGGGUCUGUUUUGGUCAAAUCUUGAAUUUCGUUGUUGCACUCUAGUGACUGAUCUUUGGGAAUGUCUUGUCUUUGCAUGGGGCUCAUAGAGAUGUGUGCAGACUUGCUUAUGGAAUUCUCGGGUGCCAA: 3.91

Block 2
Target: Phosphate system positive regulatory protein PHO4, full length, GST-tagged (PHO4, Saccharomyces cerevisiae, UniProt P07270, residues 1-312)
Method: competition protein-binding microarray
Form: double-stranded DNA, one strand shown
Matrix: in vitro
Tested at: 2 µM
Setting: whole 60-bp probe, lowest competitor level
Added: Cbf1 competitor, 0.05 µM
Direction: higher = stronger binding
Quantity: fluorescence intensity
Target sequence (chain): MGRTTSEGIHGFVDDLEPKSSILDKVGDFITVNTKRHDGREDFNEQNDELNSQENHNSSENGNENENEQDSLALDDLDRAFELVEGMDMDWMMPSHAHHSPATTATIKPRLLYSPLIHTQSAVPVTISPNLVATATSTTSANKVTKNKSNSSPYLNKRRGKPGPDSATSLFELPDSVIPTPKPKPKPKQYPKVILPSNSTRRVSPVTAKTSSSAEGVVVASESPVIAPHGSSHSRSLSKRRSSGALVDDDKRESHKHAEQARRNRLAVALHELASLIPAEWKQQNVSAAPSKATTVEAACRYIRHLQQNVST
GTCTTGTCTCATTGGTCGGTGGGTGTCCCCACTTCAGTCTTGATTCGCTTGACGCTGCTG: 4290 a.u.
AGAGAGGCTTTGAAACATGTGATTGCTGTTCGCGATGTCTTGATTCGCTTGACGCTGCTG: 9410 a.u.
TCGATGGCCATGTTACACATGGACATAAGTGCTTCCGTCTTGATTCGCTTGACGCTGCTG: 5540 a.u.
CTAACGAAGGTTTGTTCCGTGGGTGACAAGCCAAGTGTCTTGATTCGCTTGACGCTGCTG: 4140 a.u.
AGGGTCTAGTCTATCAGCCTCCGAAGGAGTTGTATAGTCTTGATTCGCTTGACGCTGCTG: 2490 a.u.
CTTTTGGATTCCCATCACGTCATGAAAGATTCTTCTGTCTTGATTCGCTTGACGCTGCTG: 4270 a.u.
CCCATCATATTAACGATCGTGCCAGCCGGATTGAACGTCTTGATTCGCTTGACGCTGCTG: 7760 a.u.
AAAGCGGTAATTTTTCACGTGTTGTCAAATATCTATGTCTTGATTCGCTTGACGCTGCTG: 14900 a.u.
AAAGCGGTAATTTTTCACGTGAGATCAAATATCTATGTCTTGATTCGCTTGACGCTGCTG: 11200 a.u.
AAAGCGGTAATTTGGATTGTGGGTGCAGATATCTATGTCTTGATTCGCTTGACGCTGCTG: 4510 a.u.
AGTTTCTTGAAGATCTGCATGACAAATAATGTTTGCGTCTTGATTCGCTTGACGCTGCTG: 4770 a.u.
CGATGGCGCCAGCATCACCTGGAGAGCATGGTGTTAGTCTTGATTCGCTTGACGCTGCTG: 5550 a.u.
AGGCGAGAAGTTCCACGCGTGTGAATTCCCCGGATGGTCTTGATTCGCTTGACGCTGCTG: 7800 a.u.
ATCGCTTTGCATCCTTACGTGCGGAAGATGGCATCGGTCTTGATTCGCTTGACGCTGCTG: 4920 a.u.
GACTTCTCCAAAGACAACGTGCTTTCCGTCCAACCAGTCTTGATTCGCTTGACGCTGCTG: 14300 a.u.
GGGCTAAAGAGCCGTCCCGTGATGGCCTGTAATGGCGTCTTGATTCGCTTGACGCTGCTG: 5170 a.u.
AGGATAATGTATTGTCATGCTGACGTATCCCATTCTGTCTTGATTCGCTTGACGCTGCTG: 5680 a.u.
GGAGTGAAAAGGGCGCTCAAAAATAGGCATATCTCAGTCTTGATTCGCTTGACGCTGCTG: 2370 a.u.
CTTCTGTAAATTTGGAAAGTGGGTGGACGCGCCCCGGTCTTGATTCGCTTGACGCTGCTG: 3580 a.u.
TCTTCTAGGAATTAGCACGTGTTTTGGTAACGCACCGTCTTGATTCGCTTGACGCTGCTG: 19400 a.u.
AACTATGCTATAAAAAACGTGACTCGGGTTCTCAGTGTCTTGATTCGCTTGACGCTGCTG: 12800 a.u.
CCAAGGAAGATGACGTTCGTGATGGCGTCATCAGAAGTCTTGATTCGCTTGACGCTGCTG: 3960 a.u.

Block 3
Target: RING finger protein unkempt homolog, zinc fingers 1-6, GST-SBP tag (UNK, Homo sapiens, UniProt Q9C0B0, residues 30-357)
Sequence of UniProt Q9C0B0 (30-357, looked up): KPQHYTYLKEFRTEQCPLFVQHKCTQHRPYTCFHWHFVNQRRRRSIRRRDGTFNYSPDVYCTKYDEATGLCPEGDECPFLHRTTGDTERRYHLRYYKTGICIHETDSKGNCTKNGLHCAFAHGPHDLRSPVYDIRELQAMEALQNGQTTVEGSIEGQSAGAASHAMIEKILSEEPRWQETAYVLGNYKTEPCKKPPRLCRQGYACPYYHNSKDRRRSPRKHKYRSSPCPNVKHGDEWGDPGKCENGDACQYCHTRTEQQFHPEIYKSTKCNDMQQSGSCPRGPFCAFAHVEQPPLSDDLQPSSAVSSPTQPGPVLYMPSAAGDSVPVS
Method: RNA Bind-n-Seq
Form: RNA
Matrix: in vitro
Tested at: not given
Setting: RNA with constant flanks, human and mouse sites, ends assumed
Baseline: input RNA pool
Direction: higher = stronger binding
Quantity: bound/input enrichment
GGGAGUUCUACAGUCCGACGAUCAGCAGGUUUGUGGUGAUUAUUUACUGUCUAGAAUGGAUGUUACCAGCUGCAUCUCUUACCGAAAUUUUGCAAGUUGUAUGGGAGACUCCCGUUUGUUGAAUAAGGUUGAUGCUUAUAUUCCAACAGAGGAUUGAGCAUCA: 0.46 ratio
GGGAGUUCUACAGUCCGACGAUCGUCAAUUUUAAAAUUAUGUGGAACAUACGUUUUCUGCUGAAAAUUAUGCUAGACUUAAAAUUGAGUGGCCUUGGUCCACUUUGCUGUGUUGUUUUUGUCAUUGAAAAUAAAUAAAACUUUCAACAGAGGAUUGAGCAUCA: 0.8 ratio
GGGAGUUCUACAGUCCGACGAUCCUUAUGACUCUUGUGGGUCAUGAUAACUGGGUACGUGGAGUUCUGUUCCAUUCUGGGGGGAAGUUUAUUUUGAGUUGUGCUGAUGACAAGACCCUCCGUGUAUGGGAUUAUAAGAACAAGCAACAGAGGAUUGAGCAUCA: 0.35 ratio
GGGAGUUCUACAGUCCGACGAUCAUCAGAGCUGAAGCCUCCGGGUGGGUUUUUAAUCCCUUCCUCUUCCUUUCAUCUACCUGUCCUCUCAGCUCCAGCCAGACAGCAUGGAACCACAGGUUACUCUAAAUGUGACUUUUAAAACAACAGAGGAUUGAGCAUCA: 0.234 ratio
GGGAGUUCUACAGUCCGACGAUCUGAGCUGCCGAAGCCGCUGCCCUGCUCUCCGUCGCGGGCUCCUUUAAUCCCAUUGUUUCUUUUAGAUUCGCUUGGGCCUAGACGCCCUCGGGGCCCGAUAUUCGGGUUGGGCGGUACCGCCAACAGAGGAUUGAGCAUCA: 0.334 ratio
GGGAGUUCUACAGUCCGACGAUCCUGCAGUCUUUGACUUUUCCUUUCUUUUUUGCCACCCUUUCAGGAACCCUGUAUGGUUUUUAGUUUAAAUUAAAGGAGUCGUUAUCGUGGUGGGAAUAUGAAAUAAAGUAGAAGAAAAGGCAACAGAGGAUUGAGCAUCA: 1.41 ratio
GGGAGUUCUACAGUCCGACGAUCCCUGAAGUGCGACACCACUGUCCCAAUACUCCUAUCAUCCUCGUGGGGACGAAGCUUGAUCUUAGGGAUGAUAAGGACACCAUUGAGAAGCUGAAGGAGAAGAAGCUGACUCCCAUCACCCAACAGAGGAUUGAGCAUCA: 0.11 ratio
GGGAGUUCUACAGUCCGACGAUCAGACUCCGCUUCCGUUUUCCUGAGCUCCUCGGGCCCCAGAGUCUCUGUUUGAUUAUUUAUUUAUUUAUUUAUUUAUUUGCCAAAAAUUCUCCUCUUCAACUUAUAGAAUGCACCUAAUAACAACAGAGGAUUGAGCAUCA: 27 ratio
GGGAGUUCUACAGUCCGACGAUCCCAACGCUCUGCUCCCUGGCAACCCCGAACACUUGGGAUGUCUCGCUGCUGUUUGCCUUCAUUAGUUUGCUCAUCAUGUUUCCCACGUGCUGGAUUGUGUCCUCCUGGCUGGUGUGGGGACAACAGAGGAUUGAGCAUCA: 1.03 ratio
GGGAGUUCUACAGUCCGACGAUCGAAAAGAAGCAACAACUUCUUAGAGCAGCAACAGGAAAGGCCAUUUUAAAUGGAAUAGACAGCAUAAACAAAGUGCUAGACCACUUCCGUCGAAAAGGAAUAAACCAGCAUGUUCAAAAUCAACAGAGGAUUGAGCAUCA: 0.116 ratio
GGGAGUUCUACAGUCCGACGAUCGCCAUGUGAUUUGCAAAUGGGGGGAAGCUACUGUGAGCGUGUGUUUUUUUAAUUUACACUAUAGAGUGAUUUUUUUUUCCCCCAACGUCAAGUUUUUACCUUGCAUGUACUGGAGUAUUUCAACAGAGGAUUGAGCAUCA: 0.998 ratio

Block 4
Target: Histone acetyltransferase KAT6A, winged helix 2, GST fusion (KAT6A, Homo sapiens, UniProt Q92794, residues 85-181)
Method: protein binding microarray
Form: double-stranded DNA, one strand shown
Matrix: in vitro
Tested at: not given
Setting: 8-mer, flanks averaged, mean of 2 arrays, mostly near background
Baseline: not given
Direction: higher = stronger binding
Quantity: E-score
Construct (chain): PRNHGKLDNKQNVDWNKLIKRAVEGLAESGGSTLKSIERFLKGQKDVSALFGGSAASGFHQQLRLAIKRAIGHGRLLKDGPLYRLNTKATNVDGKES
CCCCTTCA: -0.197
CCATTCCA: 0.0353
CCAGAAGG: 0.0537
GCGCCTAC: 0.0512
ATCTCAAT: -0.0797
GATAAGAC: -0.182
GTTCAGCA: -0.00061
GCCTGAAC: -0.00781
CGTCGGCC: 0.209
CCACCAGA: -0.0604
AAATCCAA: -0.0726
GTTAACCA: 0.0713
AGCGGGTG: 0.114
GAATATTC: 0.118
GCCAATTA: 0.0164
ACAAAGCC: 0.0711
CTCTGGAA: -0.0304
ACAGAGAA: -0.0651
